# Experimental data pooled from the literature.
SMILES,assay,system,conditions,AUC(0-inf)
CC/C=C\C/C=C\C/C=C\C/C=C\C/C=C\C/C=C\CCC(=O)Nc1ccn(C2OC(CO)C(O)C2(F)F)c(=O)n1 (stereo not drawn),,"BALB/c mouse, pancreas","intravenous, 75 mg/kg",2410 µg·min/g
Cc1cccc(O[C@H]2CCC[C@@H](C(C)CNCc3ccncc3)C2)c1 (relative stereo),,"C57BL/6 mouse female, plasma","oral, 25 mg/kg",2770 ng·h/mL
C#CCN(CCCNC(=O)CCCCC[N+]1=C(/C=C/C2=C(Cl)C(=C/C=C3\N(CCCCCC(=O)[O-])c4ccccc4C3(C)C)/CCC2)C(C)(C)c2ccccc21)CCCOc1ccc(Cl)cc1Cl,,"C57BL mouse, plasma","intravenous, 5 mg/kg",833000 ng·h/mL
O=C(OCc1cccc(O)c1O)c1ccc(O)c(CO)c1,,"mouse CD1, male, plasma","intravenous bolus, 10 mg/kg, 0 to 30 min",1760 ng·h/mL
NC(=O)c1ccc(C(=O)NOCc2ccc(Sc3cccc(Cl)c3)c(C(F)(F)F)c2)cc1,,"male ICR mouse, plasma","oral, 60 mg/kg",8170 ng·h/mL
O=C(CCCCC[N+]#[C][99Tc-5]([C]#[N+]CCCCCC(=O)N[C@H]1C(O)O[C@H](CO)[C@@H](O)[C@@H]1O)([C]#[N+]CCCCCC(=O)N[C@H]1C(O)O[C@H](CO)[C@@H](O)[C@@H]1O)([C]#[N+]CCCCCC(=O)N[C@H]1C(O)O[C@H](CO)[C@@H](O)[C@@H]1O)([C]#[N+]CCCCCC(=O)N[C@H]1C(O)O[C@H](CO)[C@@H](O)[C@@H]1O)[C]#[N+]CCCCCC(=O)N[C@H]1C(O)O[C@H](CO)[C@@H](O)[C@@H]1O)N[C@H]1C(O)O[C@H](CO)[C@@H](O)[C@@H]1O (stereo partly drawn),two-compartment model,"CD-1 mouse, blood",dose not given,261 %ID/g·min
CN1CC[C@H](c2c(O)cc(O)c3c(=O)cc(/C=C/c4c(Cl)cccc4Cl)oc23)[C@H](O)C1,,"male BALB/c mouse, plasma","oral, 50 mg/kg",3710 ng·h/mL
CC(C)(C)NCC(SS(=O)(=O)O)c1ccccc1 (stereo not drawn),,"Swiss Webster CFW mouse, female, plasma","oral, 100 mg/kg, from 0 h to infinity",1450 ng·h/mL
Cc1nc(NC(=O)N2CCC[C@H]2C(N)=O)sc1-c1csc(C(C)(C)C)n1,,"CD-1 mouse, male, plasma","intraperitoneal, 10 mg/kg",6.81 µM·h

# Some of these lines once more:
SMILES,assay,system,conditions,AUC(0-inf)
O=C(CCCCC[N+]#[C][99Tc-5]([C]#[N+]CCCCCC(=O)N[C@H]1C(O)O[C@H](CO)[C@@H](O)[C@@H]1O)([C]#[N+]CCCCCC(=O)N[C@H]1C(O)O[C@H](CO)[C@@H](O)[C@@H]1O)([C]#[N+]CCCCCC(=O)N[C@H]1C(O)O[C@H](CO)[C@@H](O)[C@@H]1O)([C]#[N+]CCCCCC(=O)N[C@H]1C(O)O[C@H](CO)[C@@H](O)[C@@H]1O)[C]#[N+]CCCCCC(=O)N[C@H]1C(O)O[C@H](CO)[C@@H](O)[C@@H]1O)N[C@H]1C(O)O[C@H](CO)[C@@H](O)[C@@H]1O (stereo partly drawn),two-compartment model,"CD-1 mouse, blood",dose not given,261 %ID/g·min
